# Published values collected from several papers.
# A part holds a random share of what one study measured.
# Chain of UniProt Q9H4B4 (whole entry, looked up): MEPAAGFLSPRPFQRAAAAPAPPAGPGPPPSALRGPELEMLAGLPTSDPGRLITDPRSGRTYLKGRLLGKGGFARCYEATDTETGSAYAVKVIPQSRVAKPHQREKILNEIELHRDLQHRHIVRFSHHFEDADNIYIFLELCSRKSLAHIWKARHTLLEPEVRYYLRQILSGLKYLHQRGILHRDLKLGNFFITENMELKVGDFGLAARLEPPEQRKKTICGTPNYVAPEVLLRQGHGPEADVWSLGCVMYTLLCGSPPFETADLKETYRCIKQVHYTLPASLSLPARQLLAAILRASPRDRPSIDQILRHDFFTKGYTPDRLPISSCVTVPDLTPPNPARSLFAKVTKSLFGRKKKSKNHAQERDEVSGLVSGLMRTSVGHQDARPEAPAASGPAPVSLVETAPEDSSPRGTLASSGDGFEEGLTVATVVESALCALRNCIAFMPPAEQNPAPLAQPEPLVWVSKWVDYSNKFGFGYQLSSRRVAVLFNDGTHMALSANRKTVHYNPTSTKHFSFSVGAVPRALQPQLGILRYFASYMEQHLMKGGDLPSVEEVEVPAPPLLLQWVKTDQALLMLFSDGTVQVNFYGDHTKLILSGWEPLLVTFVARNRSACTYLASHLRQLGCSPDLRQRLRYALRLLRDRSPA
# Chain of UniProt Q7KZI7 (whole entry, looked up): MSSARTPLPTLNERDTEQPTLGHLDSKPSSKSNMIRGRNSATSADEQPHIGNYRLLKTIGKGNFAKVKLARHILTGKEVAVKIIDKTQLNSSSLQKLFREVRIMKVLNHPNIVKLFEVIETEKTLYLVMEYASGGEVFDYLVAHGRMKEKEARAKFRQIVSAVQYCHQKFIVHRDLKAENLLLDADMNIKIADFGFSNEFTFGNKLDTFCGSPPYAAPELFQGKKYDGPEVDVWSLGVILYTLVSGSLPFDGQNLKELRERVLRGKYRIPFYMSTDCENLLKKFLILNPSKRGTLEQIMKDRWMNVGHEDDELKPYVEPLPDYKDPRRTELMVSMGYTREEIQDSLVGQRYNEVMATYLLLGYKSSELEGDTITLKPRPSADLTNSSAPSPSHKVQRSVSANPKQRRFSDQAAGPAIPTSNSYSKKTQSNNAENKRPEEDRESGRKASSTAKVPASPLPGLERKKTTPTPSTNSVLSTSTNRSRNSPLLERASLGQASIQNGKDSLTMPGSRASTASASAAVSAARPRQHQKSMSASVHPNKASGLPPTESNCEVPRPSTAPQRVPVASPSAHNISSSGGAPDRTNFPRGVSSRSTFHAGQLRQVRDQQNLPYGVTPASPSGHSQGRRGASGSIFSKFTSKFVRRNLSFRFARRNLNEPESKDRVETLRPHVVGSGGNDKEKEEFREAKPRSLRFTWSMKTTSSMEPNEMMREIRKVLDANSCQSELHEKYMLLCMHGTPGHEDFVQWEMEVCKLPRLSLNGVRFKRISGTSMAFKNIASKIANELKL
# Chain of UniProt Q6P2M8 (whole entry, looked up): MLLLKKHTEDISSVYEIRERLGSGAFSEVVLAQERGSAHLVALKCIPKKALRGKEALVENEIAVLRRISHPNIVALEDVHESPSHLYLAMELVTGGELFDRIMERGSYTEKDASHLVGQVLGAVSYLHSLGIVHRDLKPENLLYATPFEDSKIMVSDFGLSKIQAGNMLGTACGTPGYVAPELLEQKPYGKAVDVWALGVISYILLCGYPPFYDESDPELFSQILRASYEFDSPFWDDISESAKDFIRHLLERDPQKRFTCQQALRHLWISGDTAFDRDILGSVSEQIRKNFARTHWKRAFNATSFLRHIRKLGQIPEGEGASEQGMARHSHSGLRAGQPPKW
# Chain of UniProt O75914 (whole entry, looked up): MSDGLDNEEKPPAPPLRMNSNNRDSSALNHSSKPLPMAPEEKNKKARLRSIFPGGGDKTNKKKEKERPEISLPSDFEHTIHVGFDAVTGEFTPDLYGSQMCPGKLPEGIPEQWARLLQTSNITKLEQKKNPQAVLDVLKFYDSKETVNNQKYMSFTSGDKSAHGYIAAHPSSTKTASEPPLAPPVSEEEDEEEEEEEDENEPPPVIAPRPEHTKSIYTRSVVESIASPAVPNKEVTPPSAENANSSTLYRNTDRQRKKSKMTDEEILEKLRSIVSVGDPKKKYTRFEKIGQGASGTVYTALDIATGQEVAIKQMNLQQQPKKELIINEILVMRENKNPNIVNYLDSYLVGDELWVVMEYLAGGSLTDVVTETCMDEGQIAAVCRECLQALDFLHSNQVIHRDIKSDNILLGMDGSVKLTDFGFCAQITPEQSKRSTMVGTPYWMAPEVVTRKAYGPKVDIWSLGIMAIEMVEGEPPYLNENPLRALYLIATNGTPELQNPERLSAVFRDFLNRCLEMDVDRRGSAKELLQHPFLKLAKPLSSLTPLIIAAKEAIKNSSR
# Chain of UniProt P50750 (whole entry, looked up): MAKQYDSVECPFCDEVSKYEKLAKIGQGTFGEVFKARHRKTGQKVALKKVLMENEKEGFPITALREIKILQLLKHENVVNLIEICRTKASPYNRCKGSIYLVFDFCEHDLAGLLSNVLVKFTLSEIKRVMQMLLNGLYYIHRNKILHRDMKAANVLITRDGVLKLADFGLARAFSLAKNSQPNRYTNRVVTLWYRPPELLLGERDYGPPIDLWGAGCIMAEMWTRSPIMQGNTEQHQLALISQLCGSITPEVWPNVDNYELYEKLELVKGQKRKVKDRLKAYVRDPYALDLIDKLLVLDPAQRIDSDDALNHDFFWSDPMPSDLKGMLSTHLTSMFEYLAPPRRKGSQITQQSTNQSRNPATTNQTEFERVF
# Chain of UniProt Q16832 (whole entry, looked up): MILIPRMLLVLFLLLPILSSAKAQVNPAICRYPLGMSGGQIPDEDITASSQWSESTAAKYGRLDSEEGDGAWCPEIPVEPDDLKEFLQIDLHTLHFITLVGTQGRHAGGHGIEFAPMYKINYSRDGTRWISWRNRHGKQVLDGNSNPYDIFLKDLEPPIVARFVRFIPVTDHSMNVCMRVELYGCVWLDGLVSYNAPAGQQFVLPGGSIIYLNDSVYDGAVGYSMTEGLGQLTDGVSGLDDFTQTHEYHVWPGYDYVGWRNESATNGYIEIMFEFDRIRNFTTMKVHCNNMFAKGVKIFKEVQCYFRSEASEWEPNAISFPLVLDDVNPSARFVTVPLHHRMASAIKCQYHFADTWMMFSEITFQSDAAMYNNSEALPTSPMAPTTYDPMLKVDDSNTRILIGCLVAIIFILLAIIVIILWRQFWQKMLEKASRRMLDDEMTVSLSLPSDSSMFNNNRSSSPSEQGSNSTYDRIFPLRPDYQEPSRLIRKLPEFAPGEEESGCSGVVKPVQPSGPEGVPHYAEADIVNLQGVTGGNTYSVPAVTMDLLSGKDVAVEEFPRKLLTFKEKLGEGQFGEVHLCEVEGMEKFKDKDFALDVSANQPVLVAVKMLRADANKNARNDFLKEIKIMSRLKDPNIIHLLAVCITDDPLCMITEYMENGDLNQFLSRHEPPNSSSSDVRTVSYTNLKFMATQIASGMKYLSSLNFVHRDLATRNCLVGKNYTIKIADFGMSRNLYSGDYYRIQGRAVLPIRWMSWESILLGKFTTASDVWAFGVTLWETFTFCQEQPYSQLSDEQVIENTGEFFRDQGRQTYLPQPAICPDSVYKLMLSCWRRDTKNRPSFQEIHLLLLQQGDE
# Chain of UniProt P31751 (whole entry, looked up): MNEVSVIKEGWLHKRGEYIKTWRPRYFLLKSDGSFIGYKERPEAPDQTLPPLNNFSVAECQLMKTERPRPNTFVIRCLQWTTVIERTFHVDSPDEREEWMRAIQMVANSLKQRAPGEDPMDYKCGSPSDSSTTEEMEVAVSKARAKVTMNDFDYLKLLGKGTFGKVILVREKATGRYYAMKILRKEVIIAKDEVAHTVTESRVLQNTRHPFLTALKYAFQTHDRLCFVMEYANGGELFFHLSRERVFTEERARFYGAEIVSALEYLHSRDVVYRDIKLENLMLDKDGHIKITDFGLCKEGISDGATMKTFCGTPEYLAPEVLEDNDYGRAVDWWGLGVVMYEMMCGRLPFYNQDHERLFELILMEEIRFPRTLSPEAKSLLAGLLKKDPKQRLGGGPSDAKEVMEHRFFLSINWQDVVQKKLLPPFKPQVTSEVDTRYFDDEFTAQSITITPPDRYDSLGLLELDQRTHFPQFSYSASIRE
# Chain of UniProt P10721 (whole entry, unmodified, looked up): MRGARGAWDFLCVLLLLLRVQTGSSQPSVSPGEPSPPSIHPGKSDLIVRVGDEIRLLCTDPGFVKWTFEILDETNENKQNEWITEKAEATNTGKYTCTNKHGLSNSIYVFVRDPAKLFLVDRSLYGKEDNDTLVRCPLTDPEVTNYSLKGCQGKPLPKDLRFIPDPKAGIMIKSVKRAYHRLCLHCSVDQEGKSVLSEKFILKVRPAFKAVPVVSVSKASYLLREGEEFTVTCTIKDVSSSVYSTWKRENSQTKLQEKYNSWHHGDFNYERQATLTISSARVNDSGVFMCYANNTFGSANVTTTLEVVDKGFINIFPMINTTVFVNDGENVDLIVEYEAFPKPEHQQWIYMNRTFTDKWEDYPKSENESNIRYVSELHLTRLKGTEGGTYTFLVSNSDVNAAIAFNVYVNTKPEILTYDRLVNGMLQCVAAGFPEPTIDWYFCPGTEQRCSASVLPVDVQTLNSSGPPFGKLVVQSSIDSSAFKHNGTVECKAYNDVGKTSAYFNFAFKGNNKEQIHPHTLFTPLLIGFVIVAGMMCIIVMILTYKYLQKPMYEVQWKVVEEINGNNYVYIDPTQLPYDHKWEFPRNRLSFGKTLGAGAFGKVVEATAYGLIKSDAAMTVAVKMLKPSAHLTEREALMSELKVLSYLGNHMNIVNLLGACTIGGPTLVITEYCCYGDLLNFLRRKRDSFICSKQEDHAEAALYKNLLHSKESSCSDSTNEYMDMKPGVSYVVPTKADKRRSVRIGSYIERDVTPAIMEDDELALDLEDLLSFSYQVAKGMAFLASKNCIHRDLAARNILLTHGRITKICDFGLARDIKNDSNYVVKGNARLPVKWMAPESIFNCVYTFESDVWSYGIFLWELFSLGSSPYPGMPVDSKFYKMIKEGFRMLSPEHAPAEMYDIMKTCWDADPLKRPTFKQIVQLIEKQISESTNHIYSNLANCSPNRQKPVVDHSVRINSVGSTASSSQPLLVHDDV

# Block 1
# Structure (SMILES): NS(=O)(=O)c1cc(NC(=O)Cc2ccccc2)ccc1Oc1cccc(Cl)c1
# Read-out: cell-free assay
# Technique: competition with immobilised ligand
# Tested at: 1 µM
target,remaining binding [%]
"RIOK1 (Homo sapiens, UniProt Q9BRS2)",93
"FGFR3 (Homo sapiens, UniProt P22607)",86
"KIT (Homo sapiens, UniProt P10721, V559D)",81
"ALK (Homo sapiens, UniProt Q9UM73, L1196M)",62
"TRPM6 (Homo sapiens, UniProt Q9BX84)",84

# Block 2
# Cell line: mouse MPNST tumor cells
# Technique: high-content nuclear imaging
# Measured: cell number
# Tested at: 10 µM
# Time: 12 h
# Notes: mean of 2 replicates
# Relative to: plate mean
# Reading: higher = more cells
SMILES,nuclei count
CNC(=O)c1ccc(C)c(-n2c(C)cc(OCc3ccc(F)cc3F)c(Br)c2=O)c1,0.944 z-score
OC(CN1CCNCC1)Cn1c2ccc(Br)cc2c2cc(Br)ccc21 (centres unmarked),-5.87 z-score
N=C(N)Nc1ccc(C(=O)Oc2ccc3cc(C(=N)N)ccc3c2)cc1,1.19 z-score
CC(C)(N)c1ncc(-c2ccc(OC(F)(F)F)cc2)[nH]1,2.28 z-score
C=CC1=C(C)c2cc3nc(cc4[nH]c(cc5[nH]c(cc1n2)c(C)c5CCC(=O)O)c(CCC(=O)OC)c4C)C1(C)C3=CC=C(C(=O)OC)C1C(=O)OC (centres unmarked),1.02 z-score
CCN1CCc2nc(N)oc2CC1,0.704 z-score

# Block 3
# Target: Bromodomain-containing protein 4, BD1 (BRD4, Homo sapiens, UniProt O60885)
# Read-out: acetyl-histone H4 peptide binding
# Technique: AlphaScreen displacement
# Tested at: 50 µM
SMILES,inhibition [%]
COc1cccc(-c2cc(=O)c3ccccc3o2)c1N,-2.7
O=C(Nc1cc(Cl)cc2c1[nH]c1cnccc12)c1cccnc1,22.1
Fc1ccc(-c2[nH]c3ncccc3c2CN2CCCC2)cc1,23.2
CCc1cc(-c2n[nH]c(C)c2-c2ccc3c(c2)OCCO3)c(O)cc1O,65.7
Cc1nc(-c2ccccn2)nc(NCCNc2cc(C(F)(F)F)ccn2)c1Cl,24.6
Cn1cc(C=C(C#N)c2nc3ccccc3s2)cn1,14.2

# Block 4
# Structure (SMILES): NC(=O)c1ccc(N(C(N)=O)c2c(F)cccc2F)nc1-c1ccc(F)cc1F
# Read-out: enzyme activity
# Action: inhibitor
# Tested at: 0.5 µM
# Relative to: control
target,remaining activity [%]
"RPS6KA4 (Homo sapiens, UniProt O75676)",99
"Cyclin-dependent kinase 1, with cyclin A (CDK1, Homo sapiens, UniProt P06493)",101
"DDR2 (Homo sapiens, UniProt Q16832)",100
"PAK3 (Homo sapiens, UniProt O75914)",98.3
"MET (Homo sapiens, UniProt P08581)",89.4
"DCLK2 (Homo sapiens, UniProt Q8N568)",97.5
"TXK (Homo sapiens, UniProt P42681)",104
"PLK3 (Homo sapiens, UniProt Q9H4B4)",94.7
"GRK4 (Homo sapiens, UniProt P32298)",90.7
"PNCK (Homo sapiens, UniProt Q6P2M8)",108
"Cyclin-dependent kinase 9, with cyclin K (CDK9, Homo sapiens, UniProt P50750)",106
"AKT2 (Homo sapiens, UniProt P31751)",118
"KDR (Homo sapiens, UniProt P35968)",96.5
"MARK2 (Homo sapiens, UniProt Q7KZI7)",131
"CLK3 (Homo sapiens, UniProt P49761)",112

# Repeated from above (block 4):
target,remaining activity [%]
"PAK3 (Homo sapiens, UniProt O75914)",98.3
"RPS6KA4 (Homo sapiens, UniProt O75676)",99
"MARK2 (Homo sapiens, UniProt Q7KZI7)",131
